Results pooled from the literature.
Medium: plasma

SMILES	host	route	dose	setting	Tmax
COC1C(c2ccc(Cl)c(Cc3ccc(OC4CCOC4)cc3)c2)OC(CO)C(O)C1O (stereo not shown)	Sprague-Dawley rat	intravenous	2.5 mg/kg	–	4.8 min
CCC(CC)n1c(Cc2ccco2)nc2cc(C(=O)N[C@@H](CC(=O)O)c3ccccc3)ccc21	male Sprague-Dawley rat	intraperitoneal	10 mg/kg	–	30 min
O=C(C1CCN(c2nnnn2-c2ccccc2)CC1)N1CCCc2ccccc21	male Sprague-Dawley rat	oral	5 mg/kg	–	30 min
CCCN(C)c1cc(C(F)(F)F)nc(SCCC(=O)NCc2ccco2)n1	male Wistar rat	intraperitoneal	25 mg/kg	single dose	≤ 2 min
CCOP(=O)(CC(=O)Nc1ccc(S(=O)(=O)N(CC(N)=O)c2ccc(N(CC(N)=O)S(=O)(=O)c3ccc(OC)cc3)c3ccccc23)cc1)OCC	male Wistar rat	oral	28 mg/kg	single dose	47.5 min
OC1(C(F)(F)F)CCN(c2nc(Nc3ccnc(C(F)(F)F)c3)nc(-c3cccc(C(F)(F)F)n3)n2)C1 (stereo not shown)	Sprague-Dawley rat	oral	20 mg/kg	–	360 min
CN1CCC[C@@H]1C(=O)N[C@@H](Cc1ccc(-c2ccccc2)cc1)B(O)O	male Sprague-Dawley rat	oral	1 mg/kg	–	18 min
C=C(NC(=O)c1csc(-c2nc3c(cc2O)-c2nc(cs2)C(=O)NC(C(C)O)C(=O)NC(=C(C)OC)c2nc(cs2)C(=O)NC2c4nc(cs4)C(=O)NC(COC(=O)c4c5c6c(cccc6n4O)COC(=O)C(OC4CC(C)(O)C(N(C)C)C(C)O4)C2OC5)c2nc-3cs2)n1)C(N)=O (stereo not shown)	female Sprague-Dawley rat	intravenous	2 mg/kg	single dose, infusion	4.8 min
CCC(CC)n1c(Cc2cccs2)nc2cc(C(=O)N[C@@H](CC(=O)O)c3ccccc3)ccc21	male Sprague-Dawley rat	intravenous	1 mg/kg	–	4.8 min
COCCN(C)CC(=O)NC(Cc1ccc(-c2ccccc2)cc1)B(O)O (stereo not shown)	rat	oral	1 mg/kg	–	18 min
Cc1cccc(Cn2ncc3c4cc(F)c(CN(C)C)cc4n(C)c3c2=O)n1	Sprague-Dawley rat	oral	10 mg/kg	–	30 min
C/C(N)=N/C(=N\S(=O)(=O)c1ccc(C(F)(F)F)cc1)N1C[C@H](c2ccccc2)C(c2ccc(Cl)cc2)=N1	male Sprague-Dawley rat	oral	30 mg/kg	–	240 min
CC(=Nc1ccc(N)cc1)N(C)C	male Sprague-Dawley rat	oral	200 mg/kg	–	81.6 min

Repeated from above:
SMILES	host	route	dose	setting	Tmax
CN1CCC[C@@H]1C(=O)N[C@@H](Cc1ccc(-c2ccccc2)cc1)B(O)O	male Sprague-Dawley rat	oral	1 mg/kg	–	18 min
C=C(NC(=O)c1csc(-c2nc3c(cc2O)-c2nc(cs2)C(=O)NC(C(C)O)C(=O)NC(=C(C)OC)c2nc(cs2)C(=O)NC2c4nc(cs4)C(=O)NC(COC(=O)c4c5c6c(cccc6n4O)COC(=O)C(OC4CC(C)(O)C(N(C)C)C(C)O4)C2OC5)c2nc-3cs2)n1)C(N)=O (stereo not shown)	female Sprague-Dawley rat	intravenous	2 mg/kg	single dose, infusion	4.8 min
